Published values pooled from the literature.
A part holds a random share of what one study measured. Substitutions count along the parent as printed.

Study 1
Target: BATF, bZIP domain (human)
Technique: DHFR protein complementation
Medium: yeast
Notes: single substitutions, most at no-binding floor
Relative to: wild-type JUN-FOS pair
Reading: higher = stronger binding
Starting sequence: JUN, bZIP domain (human); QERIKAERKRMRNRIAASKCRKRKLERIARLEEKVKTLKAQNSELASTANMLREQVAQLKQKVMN; partner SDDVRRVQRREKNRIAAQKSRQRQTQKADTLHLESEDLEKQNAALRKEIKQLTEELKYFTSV
| Substitution | binding fitness |
| --- | --- |
| S47F | 0.0131 natural log |
| E44C | -0.0859 natural log |
| A46G | -0.19 natural log |
| K36F | -0.194 natural log |
| T48R | 0.0756 natural log |
| L52T | -1.22 natural log |
| K34P | -1 natural log |
| K39Y | -0.253 natural log |
| S43F | -0.0847 natural log |
| K39R | 0.135 natural log |
| N42R | -0.0945 natural log |
| A40Q | 0.112 natural log |
| S47I | -0.00398 natural log |
| K36V | -0.0208 natural log |
| I28V | 0.0339 natural log |
| V56T | -0.454 natural log |
| V35H | -0.311 natural log |
| Q41L | -0.0865 natural log |
| K34W | 0.16 natural log |
| A49I | -0.38 natural log |
| R30F | 0.0372 natural log |
| E33N | -0.186 natural log |
| K39W | -0.354 natural log |
| E44P | -1.26 natural log |
| R30G | 0.103 natural log |

Study 2
Target: Phosphate system positive regulatory protein PHO4, full length, GST-tagged (PHO4, Saccharomyces cerevisiae, UniProt P07270, residues 1-312)
Technique: competition protein-binding microarray
Form: double-stranded DNA, one strand shown
Medium: in vitro
Concentration: 2 µM
Notes: whole 60-bp probe, lowest competitor level
Added: Cbf1 competitor, 0.05 µM
Reading: higher = stronger binding
Constant ends, left off below: … GTCTTGATTCGCTTGACGCTGCTG
Construct (chain): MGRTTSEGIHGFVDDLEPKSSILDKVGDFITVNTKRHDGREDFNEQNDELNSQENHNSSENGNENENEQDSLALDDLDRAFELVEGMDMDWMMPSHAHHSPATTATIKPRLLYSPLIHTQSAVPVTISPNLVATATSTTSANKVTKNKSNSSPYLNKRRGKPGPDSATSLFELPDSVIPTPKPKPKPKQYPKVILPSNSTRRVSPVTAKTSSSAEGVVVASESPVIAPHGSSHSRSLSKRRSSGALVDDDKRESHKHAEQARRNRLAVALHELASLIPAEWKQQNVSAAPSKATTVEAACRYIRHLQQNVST
| Sequence | fluorescence intensity [a.u.] |
| --- | --- |
| TATATGTTTCACTGGCACGTTTTGTTTTGTCCCCTT | 14000 |
| CTTTCCCGATCTTTTCACGTGTGATTAGCACATTTG | 12100 |
| GCTTTGGCATATTGCCACATGCGAATGTACATGTCC | 9710 |
| TTAAGAAGCCTTTTCCATGTGAGGAAGCTTCGCCTT | 3900 |
| AGAAAATCATATCACCACGTGGACCTCTCAAAGACT | 20500 |
| CGGGGTTAAGTTTGTCACGAAACTTGCTTGCAGCAG | 3520 |
| CATGCCCTTTCCTCCCTCGTGGGACCTCCCAGGAGA | 11200 |
| GGCGAGATAAAGCAGAACGTGAAGCTCAGTTAAGTA | 8690 |
| CTTCTGTAAATTTGTCAAGTGGGTGGACGCGCCCCG | 3860 |
| TGGCTACTTCGTCACCACGTGGGTACGTATCCGGAA | 18100 |
| ACAGCAAGCAACCATCACGTGCTAAATCGCAAACTT | 18600 |
| CGTCCTAGTGATTGTCACGCGACTTCCATGAGGAAG | 7050 |
| CTCCTCCTCCGGCTTCACGTGTGGAATAGGTGTATG | 14000 |
| CTTCTGTAAATTTTACACGTGTTTTGACGCGCCCCG | 16000 |
| CTTTTGAGAATTGTCAACGTGGGTAGGTTCGTTTCG | 13100 |
| CGGGGTTAAGTTTTTCACGTGCAATGCTTGCAGCAG | 11600 |
| ATATCATTTCGCCAACACGTGAGATATCATCTGGCT | 12400 |
| CTAACGAAGGTTTGTTATGTGGGTGACAAGCCAAGT | 4010 |
| TTCGGGACATCTTGTCATGCTCCTCGCAATTCACTC | 5250 |
| CGATATAGCACCGACCATGTGGGCAAATTCGTAATA | 12100 |
| GGTTGTAATGTTGTTGATGTGACGGGCCATATTGAA | 5060 |

Study 3
Target: Histone acetyltransferase KAT6A, winged helix 2, GST fusion (KAT6A, Homo sapiens, UniProt Q92794, residues 85-181)
Technique: protein binding microarray
Form: double-stranded DNA, one strand shown
Medium: in vitro
Concentration: not given
Notes: 8-mer, flanks averaged, mean of 2 arrays, mostly near background
Relative to: not given
Reading: higher = stronger binding
Residues (chain): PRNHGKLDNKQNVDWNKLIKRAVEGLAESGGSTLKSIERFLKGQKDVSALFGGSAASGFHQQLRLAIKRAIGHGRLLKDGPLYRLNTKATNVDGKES
| Sequence | E-score |
| --- | --- |
| CCGTATTC | 0.0825 |
| GCTCAATA | -0.0518 |
| CTAGTGAG | -0.0037 |
| GAGGGTTA | -0.182 |
| AAATATAT | 0.105 |
| CCTACCGA | -0.173 |
| AATGAGGT | -0.0685 |
| ATTCCTAC | -0.234 |
| CTCTATAC | -0.0758 |
| AGGACCAC | -0.0943 |
| AATGAAAC | 0.212 |
| TCATTACA | -0.00254 |
| GAAAGGAC | -0.00128 |
| ACCAACGA | -0.0633 |
| AATAAACC | -0.0322 |
| CCCACGGA | 0.184 |
| GGTTTGTA | -0.0275 |
| AGTGCAGG | 0.139 |
| GGACTGGA | -0.00537 |
| AATTAAGA | 0.0743 |
| ACAACCAG | 0.213 |
| ACTGATTC | 0.0186 |
| ATGGACGA | 0.111 |
| AACGTCGA | 0.0116 |
| CAACTCCG | 0.0765 |

Study 4
Target: Interferon regulatory factor 7, full length, phosphomimetic (IRF7, Homo sapiens, UniProt Q92985, residues 1-503, S471D/S472D/S475D/S476D/S477D/S483D/S484D/S487D)
Sequence of UniProt Q92985 (whole entry, unmodified, looked up): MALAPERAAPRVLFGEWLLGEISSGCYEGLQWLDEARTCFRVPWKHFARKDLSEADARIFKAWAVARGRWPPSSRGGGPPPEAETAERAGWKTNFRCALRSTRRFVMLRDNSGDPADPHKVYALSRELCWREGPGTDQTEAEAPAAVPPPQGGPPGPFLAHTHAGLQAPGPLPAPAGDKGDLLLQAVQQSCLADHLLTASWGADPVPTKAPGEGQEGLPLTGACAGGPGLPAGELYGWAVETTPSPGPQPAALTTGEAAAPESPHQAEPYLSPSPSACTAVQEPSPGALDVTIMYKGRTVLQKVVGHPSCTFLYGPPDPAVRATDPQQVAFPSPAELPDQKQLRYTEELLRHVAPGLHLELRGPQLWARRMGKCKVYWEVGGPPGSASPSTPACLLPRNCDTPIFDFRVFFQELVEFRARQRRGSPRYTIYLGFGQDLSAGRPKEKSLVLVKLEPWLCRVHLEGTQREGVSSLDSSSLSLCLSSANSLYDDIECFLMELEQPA
Technique: protein-binding microarray
Form: double-stranded DNA, one strand shown
Medium: in vitro
Concentration: 2200 nM top
Notes: 60-bp whole probe
Added: salmon DNA 0.4 mg/ml
Relative to: random background probes
Reading: higher = stronger binding
Constant ends, left off below: GCCTAGCAC … GTCTTGATTCGCTTGACGCTGCTG
| Sequence | fitted relative affinity [z-score] |
| --- | --- |
| ATTGTTTCCTTCCTCTTTTAGTGCTAG | 3.75 |
| TTAGATATCTGTATCGATTAGTGCTAG | 0.242 |
| TTAGGACTGGGGTTTTGGTTAGTGCTA | -0.0406 |
| TCACCTCTGTAAGTCAGACTGTGCTAG | 0.917 |
| TTGATTGTGGCTTTTTAATGGTGCTAG | 0.347 |
| TTAGGCATCCTTATCCTTTAGTGCTAG | 0.11 |
| GACGGTATCGGGTTGCGGGACGTGCTA | 0.787 |
| TTAGGCATCGGGTTTCGGTTAGTGCTA | 3.24 |
| GACGATATCAGTCTCGAGTCGTGCTAG | 0.816 |
| TTAGGTATCGGTCTCGGTGAGTGCTAG | 0.545 |
| GACGATTTCAGTTTCGAGACGTGCTAG | 5.68 |
| GACGGTATCCACTATCGGGACGTGCTA | 0.326 |
| TTAGGACTGTACTATCGGTTAGTGCTA | 0.257 |
| GGGTGTGTGAGTGTGTGTGCGTGCTAG | -0.0667 |
| TCATATATATGTGTATAACTGTGCTAG | 0.877 |
| GACGAACTTGGGTATCGAGACGTGCTA | -0.253 |
| GACGGTTTCGGGTCCGGGACGTGCTAG | 6.69 |

Study 5
Target: Prothrombin, mature alpha-thrombin (F2, Homo sapiens, UniProt P00734)
Technique: aptamer microarray, sandwich
Form: DNA with 2'F-ANA
Medium: in vitro
Concentration: 200 nM
Notes: whole 15-mer aptamer, many near background
Added: Cy3 exosite-II aptamer, 400 nM
Reading: higher = stronger binding
Sequence: GGTTGGTGTGGTTGG
| Modification | mean fluorescence intensity [a.u.] |
| --- | --- |
| 2'F-ANA at 1 3 5 7 8 12 15 | 196 |
| 2'F-ANA at 3 8 9 12 14 | 810 |
| 2'F-ANA at 3 5 8 12 | 337 |
| 2'F-ANA at 1 2 4 5 7 12 13 15 | 73.9 |
| 2'F-ANA at 1 3 4 5 6 7 8 9 12 13 15 | 78 |
| 2'F-ANA at 1 2 3 4 5 6 10 12 14 | 48.3 |
| 2'F-ANA at 1 3 4 5 6 9 10 12 13 15 | 53.8 |
| 2'F-ANA at 3 4 5 6 8 9 10 12 13 | 50.4 |
| 2'F-ANA at 1 2 6 7 8 13 14 15 | 57.4 |
| 2'F-ANA at 1 4 5 7 11 12 15 | 82.6 |
| 2'F-ANA at 2 3 4 7 8 9 10 11 12 15 | 291 |
| 2'F-ANA at 3 7 10 11 13 15 | 498 |
| 2'F-ANA at 1 2 3 5 7 8 9 11 12 14 | 269 |
| 2'F-ANA at 1 2 3 4 5 11 12 13 14 15 | 51.7 |
| 2'F-ANA at 1 5 6 9 10 12 13 | 60.1 |
| 2'F-ANA at 3 4 5 6 10 14 15 | 84.7 |
| 2'F-ANA at 2 4 9 11 13 | 177 |
| 2'F-ANA at 1 2 3 6 8 9 13 15 | 184 |
| 2'F-ANA at 1 4 5 7 11 12 14 15 | 45.7 |
| 2'F-ANA at 1 2 4 5 6 7 8 10 13 15 | 49.2 |
| 2'F-ANA at 3 6 8 9 11 14 | 522 |

Study 6
Target: Sal-like protein 4, full length isoform A (SALL4, Homo sapiens, UniProt Q9UJQ4, residues 1-1053)
Sequence of UniProt Q9UJQ4 (whole entry, looked up): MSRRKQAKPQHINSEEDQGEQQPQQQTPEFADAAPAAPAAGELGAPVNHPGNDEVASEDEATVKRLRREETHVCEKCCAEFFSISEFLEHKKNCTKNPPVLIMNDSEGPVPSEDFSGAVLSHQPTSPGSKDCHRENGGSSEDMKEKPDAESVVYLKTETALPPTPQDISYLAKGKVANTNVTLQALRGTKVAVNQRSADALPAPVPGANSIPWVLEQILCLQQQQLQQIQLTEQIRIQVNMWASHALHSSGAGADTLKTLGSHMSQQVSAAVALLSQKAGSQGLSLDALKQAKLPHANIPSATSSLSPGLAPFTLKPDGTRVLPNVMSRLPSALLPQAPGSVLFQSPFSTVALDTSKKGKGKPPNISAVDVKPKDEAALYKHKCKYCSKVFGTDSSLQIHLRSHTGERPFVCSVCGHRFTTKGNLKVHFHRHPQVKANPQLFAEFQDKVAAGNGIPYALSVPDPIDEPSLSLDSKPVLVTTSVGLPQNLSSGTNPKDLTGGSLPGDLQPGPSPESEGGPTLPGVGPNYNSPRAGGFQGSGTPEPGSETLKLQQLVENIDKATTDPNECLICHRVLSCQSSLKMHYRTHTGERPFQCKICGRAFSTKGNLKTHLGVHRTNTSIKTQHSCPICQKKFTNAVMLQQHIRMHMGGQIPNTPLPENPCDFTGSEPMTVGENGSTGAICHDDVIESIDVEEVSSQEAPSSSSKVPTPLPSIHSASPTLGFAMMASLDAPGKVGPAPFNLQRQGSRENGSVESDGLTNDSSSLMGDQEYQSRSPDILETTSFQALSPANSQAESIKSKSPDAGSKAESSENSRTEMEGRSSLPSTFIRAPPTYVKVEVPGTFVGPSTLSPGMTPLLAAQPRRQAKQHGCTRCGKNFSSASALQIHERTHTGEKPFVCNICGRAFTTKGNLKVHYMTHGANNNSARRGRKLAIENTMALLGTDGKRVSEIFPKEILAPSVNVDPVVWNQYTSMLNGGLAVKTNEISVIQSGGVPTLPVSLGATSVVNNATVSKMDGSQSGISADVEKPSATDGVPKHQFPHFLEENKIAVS
Technique: universal PBM
Form: double-stranded DNA, one strand shown
Medium: in vitro
Concentration: 600 nM
Notes: 8-mer, flanks averaged, mean of replicates
Reading: higher = stronger binding
| Sequence | E-score |
| --- | --- |
| AGACTAGG | -0.00215 |
| CGTCGCGA | -0.201 |
| AATGCAAC | 0.173 |
| GTCCTGGA | -0.246 |
| GGAGTGTA | -0.122 |
| CAGGTCCA | -0.115 |
| ACGTAGGC | -0.139 |
| AAGGGCAC | -0.21 |
| GGGCATCA | -0.235 |
| CTGTGCTC | 0.0024 |
| GCAACGCC | -0.282 |
| AGGTGCTG | -0.247 |
| CCGGGGGC | -0.429 |
| ACCAATAC | 0.168 |
| GCTTGAAA | 0.131 |
| GAGTCGGC | -0.183 |

Repeated from above (study 1):
| Substitution | binding fitness |
| --- | --- |
| N42R | -0.0945 natural log |
| L52T | -1.22 natural log |
| K36V | -0.0208 natural log |
| T48R | 0.0756 natural log |
| V56T | -0.454 natural log |
| K39Y | -0.253 natural log |
| K34W | 0.16 natural log |
| V35H | -0.311 natural log |
| E44P | -1.26 natural log |
| R30F | 0.0372 natural log |
